Results gathered from unrelated publications.
Each line is one published result; not all experiments were run side by side. ± gives the spread as reported.

Compound	tested on	assay	test system	setting	scale	quantity	result
NC(=O)[C@H]1CCN(c2ncnc(N)c2F)C[C@@H]1N1CCC[C@@H](Nc2cc(Cl)cc(C(F)(F)F)c2)C1=O	–	–	B-cell malignancy patients	oral, 41 mg twice daily, dose	–	any grade ≥3 adverse event	80%
O=C1Nc2cc3[nH]nc(-c4ccncc4)c3cc2CN1Cc1ccccc1	–	item: QTc prolongation	patients with advanced solid tumours	intravenous, dose not given, schedules 1 and 2	–	patients with grade ≥3 TEAE	9%
CN1CC[C@@H](c2c(O)cc(O)c3c(=O)cc(-c4ccc(C(F)(F)F)cc4Cl)oc23)[C@@H]1CO	–	item: rectal abscess	B-cell malignancies	oral, 200 mg, grade 3 to 4, intermittent dosing	–	patients with adverse event	0%
O=C(Nc1ccccc1)C1CCN(C(=O)Oc2cccnc2)CC1	–	–	healthy women	oral, 100 mg, 9 days	–	adverse event Erythema	0%
CN[C@H]1CC[C@@H](c2ccc(Cl)c(Cl)c2)c2ccccc21	–	–	CD-1 mouse, male, lung	intraperitoneal, 30 mg/kg	–	elimination rate constant	6.15e-05 s⁻¹
CC[C@H](C)[C@H](NC(=O)[C@H](CO)NC(=O)[C@H](CCCNC(=N)N)NC(C)=O)C(=O)N[C@H]1CSSC[C@@H](C(=O)N[C@H](C(N)=O)[C@@H](C)O)NC(=O)[C@H](CCCNC(=N)N)NC(=O)[C@H](Cc2c[nH]cn2)NC(=O)[C@H](Cc2cccc3ccccc23)NC(=O)CNC(=O)[C@H](Cc2c[nH]c3ccccc23)NC(=O)[C@H](CC(=O)O)NC(=O)[C@H](CCC(N)=O)NC(=O)[C@H](Cc2cccc3ccccc23)NC(=O)[C@H](C(C)C)NC1=O	–	isocratic RP-HPLC	C18 column	pH 7.4, 25 °C, elution method 2	higher = more lipophilic	log retention factor	0.85
CCC[C@@](N)(CO)CCc1ccc(OCCCCCC(C)C)cc1	–	–	male hound dog, plasma	oral, 2.5 mg/kg, capsule, median	–	half-life	24.1 h
CC(C)[C@@H]1NC(=O)CNC(=O)[C@H](CC(N)=O)NC(=O)[C@H](CCCNC(=N)N)NC(=O)[C@H](Cc2ccc(O)cc2)NC(=O)[C@H](C(C)C)NC(=O)[C@@H](NC(=O)[C@@H](NC(=O)[C@H](CC(N)=O)NC(=O)[C@H](Cc2c[nH]c3ccccc23)NC(=O)[C@H](C)NC(=O)[C@H](Cc2ccccc2)NC(=O)CN)C(C)C)CSSC[C@@H](C(=O)N[C@@H](Cc2cnc[nH]2)C(=O)N[C@@H](CCCNC(=N)N)C(=O)N[C@@H](CCCNC(=N)N)C(=O)N[C@@H](C)C(=O)N[C@@H](CC(N)=O)C(N)=O)NC(=O)[C@H](C(C)C)NC(=O)[C@H](CCCNC(=N)N)NC1=O	–	–	ICR mouse, blood	intramammary, 5 mg/kg, day 5, 3 d dosing	–	haematocrit	41.1 ± 0.64%
Cn1cncc1-c1c(F)cncc1NC(=O)c1c(N)nn2cc(F)cnc12	–	–	human patients	oral, 270 mg once daily, 21 days	–	dose-limiting toxicity anaemia	25%
CNCCC(Oc1ccccc1OC)c1ccccc1 (centres unmarked)	Plasmodium falciparum	–	3D7	–	–	IC50	12.6 µM
Clc1ccc(Cl)c(-c2ccc(Cl)c(Cl)c2Cl)c1	–	–	polyethylene-water partitioning	PCB compilation	relative to: maximum over minimum K	literature range factor	1.3
O=C(Nc1ccccc1)C1CCN(C(=O)Oc2cccnc2)CC1	–	item: abdominal distension	healthy female humans	concentration not given, safety set, all doses pooled	–	TEAE incidence	4%
Clc1cc(-c2cc(Cl)c(Cl)c(Cl)c2)cc(Cl)c1Cl	–	–	fresh water	20 °C	–	log K(PDMS-water)	6.32 ± 0.08
COc1ccc2nc3cc(Cl)ccc3c(Nc3cc(CN4CCCC4)c(O)c(CN4CCCC4)c3)c2n1	–	–	mouse, blood	intraperitoneal, 28 mg/kg	–	haematocrit	44%
C[C@H]1C[C@@H](N2C(=N)N[C@](C)(c3cccc(NC(=O)c4cccc(C#N)c4)c3Cl)CC2=O)CCO1	–	–	rat	500 mg/kg, every other day	–	glucose change	55%
CCc1ccc(CC/C=C/c2ccc3c(c2)C(=O)CC3)cc1	–	–	Sprague-Dawley rat, female	oral, 120 mg/kg/day, 14 days	–	Erythrocyte percentage	10.7%
CCN1[C@@H](C(=O)NC23CCC(C(=O)O)(CC2)CC3)[C@H](c2cccc(Cl)c2F)[C@]2(C(=O)Nc3cc(Cl)ccc32)C12CCCCC2	–	–	patients with advanced solid tumours	oral, 100 mg	–	Embolism incidence	0%
Cc1c(COC(=O)[C@@H]2[C@H](/C=C(\Cl)C(F)(F)F)C2(C)C)cccc1-c1ccccc1 (racemic)	–	item: CYP2C9	human, age 1 year, recombinant human CYP2C9	0.1 µM	–	enzyme contribution to clearance	22.1%
CO[C@H]1C[C@@H]2CC[C@@H](C)[C@@](O)(O2)C(=O)C(=O)N2CCCC[C@H]2C(=O)O[C@H]([C@H](C)C[C@@H]2CC[C@@H](OC(=O)NCCOCCOCCOCCOCCOCCOCCOCCOCCC(=O)N3CCc4cc(Cn5nc(-c6ccc7oc(N)nc7c6)c6c(N)ncnc65)ccc4C3)[C@H](OC)C2)C[C@@H](O)[C@H](C)/C=C(\C)[C@@H](O)[C@@H](OC)C(=O)[C@H](C)C[C@H](C)/C=C/C=C/C=C/1C	–	–	patients with advanced solid tumours	intravenous, dose not given, grade ≥3	–	Fatigue AE leading to dose reduction	0%
COc1cc2c(Oc3ccc4[nH]c(C)cc4c3F)ccnc2cc1OCC1(N)CC1	–	–	paediatric recurrent refractory sarcoma	8 mg	–	Headache incidence	0%
CC(C)C[C@@H]1NC(=O)CNC(=O)[C@H](CC(N)=O)NC(=O)[C@H](CCCNC(=N)N)NC(=O)[C@H]([C@@H](C)O)NC(=O)[C@@H]2CSSC[C@@H]3NC(=O)[C@H]([C@@H](C)O)NC(=O)CNC(=O)CNC(=O)[C@H](CCCCN)NC(=O)[C@@H]4CSSC[C@H](NC(=O)[C@H]([C@@H](C)O)NC(=O)[C@H](CSSC[C@H](NC(=O)[C@H](C(C)C)NC(=O)[C@@H]5CCCN5C1=O)C(=O)NCC(=O)N[C@@H](CCC(=O)O)C(=O)N[C@@H]([C@@H](C)O)C(=O)N4)NC(=O)CNC(=O)[C@@H]1CCCN1C(=O)[C@H]([C@@H](C)O)NC(=O)[C@H](CC(N)=O)NC3=O)C(=O)N[C@@H](CO)C(=O)N[C@@H](Cc1c[nH]c3ccccc13)C(=O)N1CCC[C@H]1C(=O)N[C@@H](C(C)C)C(=O)N2	–	HPLC	ammonium bicarbonate 0.1 M	180 µM, 14 days, pH 9.0, 37 °C, deamidation stability	–	remaining peptide	60.9 ± 1.1%
CN1CCN(S(=O)(=O)c2cc([N+](=O)[O-])ccc2N(CCOS(C)(=O)=O)CCOS(C)(=O)=O)CC1	–	–	NSG mice female, brain	intraperitoneal, 10 mg/kg, 0.25 h	–	concentration	0.13 µM
C=CCc1ccccc1OCC(O)CNC(C)C (centres unmarked)	Plasmodium falciparum	–	3D7	–	–	IC50	10 µM
O.O.O.O.O.O.[Cl-].[Cl-].[Co+2]	–	–	Crl:CD(SD) rat female, blood	oral, 7.44 mg Co/kg/day, 90 days	relative to: red blood cells	reticulocytes	15.4%
CC(C)C[C@@H]1NC(=O)CNC(=O)[C@H](CC(N)=O)NC(=O)[C@H](CCCNC(=N)N)NC(=O)[C@H]([C@@H](C)O)NC(=O)[C@@H]2CSSC[C@@H]3NC(=O)[C@H]([C@@H](C)O)NC(=O)CNC(=O)CNC(=O)[C@H](C(C)C)NC(=O)[C@@H]4CSSC[C@H](NC(=O)[C@H]([C@@H](C)O)NC(=O)[C@H](CSSC[C@H](NC(=O)[C@H](C(C)C)NC(=O)[C@@H]5CCCN5C1=O)C(=O)NCC(=O)N[C@@H](CCC(=O)O)C(=O)N[C@@H]([C@@H](C)O)C(=O)N4)NC(=O)CNC(=O)[C@@H]1CCCN1C(=O)[C@H]([C@@H](C)O)NC(=O)[C@H](CCCCN)NC3=O)C(=O)N[C@@H](CO)C(=O)N[C@@H](Cc1c[nH]c3ccccc13)C(=O)N1CCC[C@H]1C(=O)N[C@@H](C(C)C)C(=O)N2	–	HPLC	ammonium bicarbonate	180 µM, 14 days, pH 9.0, 25 °C, deamidation stability	–	remaining peptide	91.2 ± 0.2%
C[C@@H]1OC(=O)NN=C1c1ccc(-c2ccc(F)cc2)c(C(F)(F)F)c1	–	phase I trial, item: Pneumonitis all grades	human patients	20 mg loading then 1 mg daily	–	patients with adverse event	50%
O=S(=O)(Nc1ccccc1)c1ccc(NC(=S)Nc2ccccc2)cc1	–	item: ALT	male mouse, blood	oral, 80 mg/kg daily, 14 days	–	serum enzyme activity	115 U/L
COc1ncccc1-c1cnn2ccc(N3CCN(C(=O)OC(C)C)CC3)nc12	–	–	mouse, formalin test, plasma	oral, 30 mg/kg, 60 min	–	drug concentration	13 µM
COc1ncnn2ccc(-c3cnc4nc(C)n(Cc5nnc([C@@H](C)F)o5)c4c3)c12	–	–	human patients	oral, dose not given, grade 1 adverse drug reaction	–	incidence of Fatigue	7.1%

A few entries again:
Compound	tested on	assay	test system	setting	scale	quantity	result
O=S(=O)(Nc1ccccc1)c1ccc(NC(=S)Nc2ccccc2)cc1	–	item: ALT	male mouse, blood	oral, 80 mg/kg daily, 14 days	–	serum enzyme activity	115 U/L
Clc1ccc(Cl)c(-c2ccc(Cl)c(Cl)c2Cl)c1	–	–	polyethylene-water partitioning	PCB compilation	relative to: maximum over minimum K	literature range factor	1.3
CC(C)[C@@H]1NC(=O)CNC(=O)[C@H](CC(N)=O)NC(=O)[C@H](CCCNC(=N)N)NC(=O)[C@H](Cc2ccc(O)cc2)NC(=O)[C@H](C(C)C)NC(=O)[C@@H](NC(=O)[C@@H](NC(=O)[C@H](CC(N)=O)NC(=O)[C@H](Cc2c[nH]c3ccccc23)NC(=O)[C@H](C)NC(=O)[C@H](Cc2ccccc2)NC(=O)CN)C(C)C)CSSC[C@@H](C(=O)N[C@@H](Cc2cnc[nH]2)C(=O)N[C@@H](CCCNC(=N)N)C(=O)N[C@@H](CCCNC(=N)N)C(=O)N[C@@H](C)C(=O)N[C@@H](CC(N)=O)C(N)=O)NC(=O)[C@H](C(C)C)NC(=O)[C@H](CCCNC(=N)N)NC1=O	–	–	ICR mouse, blood	intramammary, 5 mg/kg, day 5, 3 d dosing	–	haematocrit	41.1 ± 0.64%
